Published values gathered from unrelated publications.
Each line is one published result; not all experiments were run side by side.
Sequence of UniProt Q92772 (whole entry, looked up): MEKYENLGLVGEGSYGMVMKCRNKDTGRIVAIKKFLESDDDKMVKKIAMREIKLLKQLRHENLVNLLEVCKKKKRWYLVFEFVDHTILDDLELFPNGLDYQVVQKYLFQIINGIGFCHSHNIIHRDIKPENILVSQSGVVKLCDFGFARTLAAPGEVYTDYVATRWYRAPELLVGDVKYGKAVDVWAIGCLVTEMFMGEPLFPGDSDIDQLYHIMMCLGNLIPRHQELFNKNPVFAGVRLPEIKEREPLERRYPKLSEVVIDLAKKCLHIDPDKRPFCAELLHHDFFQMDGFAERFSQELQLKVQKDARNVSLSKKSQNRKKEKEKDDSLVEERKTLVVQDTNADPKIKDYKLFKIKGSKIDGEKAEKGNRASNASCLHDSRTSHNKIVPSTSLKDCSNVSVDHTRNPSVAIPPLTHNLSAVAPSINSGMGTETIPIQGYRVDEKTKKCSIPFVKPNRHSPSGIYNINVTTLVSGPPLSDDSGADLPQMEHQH
Sequence of UniProt Q12809 (whole entry, looked up): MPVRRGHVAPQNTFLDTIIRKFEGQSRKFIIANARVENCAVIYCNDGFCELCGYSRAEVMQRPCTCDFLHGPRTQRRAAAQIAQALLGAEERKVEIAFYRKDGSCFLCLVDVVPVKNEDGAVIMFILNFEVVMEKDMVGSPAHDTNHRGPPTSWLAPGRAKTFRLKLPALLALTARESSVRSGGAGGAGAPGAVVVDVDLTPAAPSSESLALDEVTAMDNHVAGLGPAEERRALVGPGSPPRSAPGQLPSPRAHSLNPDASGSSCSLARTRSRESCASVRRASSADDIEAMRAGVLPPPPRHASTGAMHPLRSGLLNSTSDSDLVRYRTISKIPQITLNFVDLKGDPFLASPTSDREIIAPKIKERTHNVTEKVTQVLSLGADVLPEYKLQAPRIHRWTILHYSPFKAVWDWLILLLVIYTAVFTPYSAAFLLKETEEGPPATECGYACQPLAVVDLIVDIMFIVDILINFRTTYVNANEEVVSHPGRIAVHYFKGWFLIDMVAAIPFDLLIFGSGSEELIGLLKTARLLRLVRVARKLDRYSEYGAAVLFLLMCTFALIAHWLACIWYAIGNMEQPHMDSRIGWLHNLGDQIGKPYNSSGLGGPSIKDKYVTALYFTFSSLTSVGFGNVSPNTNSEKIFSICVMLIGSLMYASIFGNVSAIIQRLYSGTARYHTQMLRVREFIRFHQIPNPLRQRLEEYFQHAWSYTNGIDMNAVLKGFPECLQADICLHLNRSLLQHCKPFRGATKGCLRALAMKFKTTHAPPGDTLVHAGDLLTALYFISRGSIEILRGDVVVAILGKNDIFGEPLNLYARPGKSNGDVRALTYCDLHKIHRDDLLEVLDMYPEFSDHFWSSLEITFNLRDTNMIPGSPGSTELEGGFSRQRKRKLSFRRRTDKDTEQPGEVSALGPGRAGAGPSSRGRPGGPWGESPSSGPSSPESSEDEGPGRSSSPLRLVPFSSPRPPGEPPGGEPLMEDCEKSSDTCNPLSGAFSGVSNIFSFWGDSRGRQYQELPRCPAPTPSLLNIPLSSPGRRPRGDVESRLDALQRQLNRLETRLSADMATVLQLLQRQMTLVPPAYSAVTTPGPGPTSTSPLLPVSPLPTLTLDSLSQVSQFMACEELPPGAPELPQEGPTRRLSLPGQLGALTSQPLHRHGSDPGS
Sequence of UniProt O43283 (whole entry, looked up): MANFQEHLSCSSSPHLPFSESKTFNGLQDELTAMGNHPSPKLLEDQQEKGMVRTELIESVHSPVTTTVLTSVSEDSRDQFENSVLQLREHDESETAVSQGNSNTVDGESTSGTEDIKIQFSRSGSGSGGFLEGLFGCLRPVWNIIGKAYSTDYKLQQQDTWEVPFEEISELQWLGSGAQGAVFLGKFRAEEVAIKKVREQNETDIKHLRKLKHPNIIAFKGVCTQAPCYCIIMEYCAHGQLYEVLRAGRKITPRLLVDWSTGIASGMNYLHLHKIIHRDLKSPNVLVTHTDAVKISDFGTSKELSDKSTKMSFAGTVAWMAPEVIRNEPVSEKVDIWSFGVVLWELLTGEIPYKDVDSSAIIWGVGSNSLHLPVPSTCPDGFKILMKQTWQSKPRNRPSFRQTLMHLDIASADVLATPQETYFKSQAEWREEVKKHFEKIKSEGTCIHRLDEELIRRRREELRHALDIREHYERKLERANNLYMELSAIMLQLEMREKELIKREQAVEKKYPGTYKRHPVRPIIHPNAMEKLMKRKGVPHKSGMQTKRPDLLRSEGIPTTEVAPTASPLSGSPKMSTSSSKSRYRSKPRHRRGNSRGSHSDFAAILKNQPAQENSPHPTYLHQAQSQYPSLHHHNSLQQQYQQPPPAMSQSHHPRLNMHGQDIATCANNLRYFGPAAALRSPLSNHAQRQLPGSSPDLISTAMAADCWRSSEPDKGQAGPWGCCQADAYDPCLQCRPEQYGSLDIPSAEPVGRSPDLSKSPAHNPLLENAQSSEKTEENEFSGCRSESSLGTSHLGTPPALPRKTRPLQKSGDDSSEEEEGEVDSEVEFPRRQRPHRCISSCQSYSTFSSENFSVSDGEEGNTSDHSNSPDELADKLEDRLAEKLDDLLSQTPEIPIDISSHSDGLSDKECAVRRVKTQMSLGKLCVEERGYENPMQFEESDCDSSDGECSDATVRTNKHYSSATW
Sequence of UniProt O15075 (whole entry, looked up): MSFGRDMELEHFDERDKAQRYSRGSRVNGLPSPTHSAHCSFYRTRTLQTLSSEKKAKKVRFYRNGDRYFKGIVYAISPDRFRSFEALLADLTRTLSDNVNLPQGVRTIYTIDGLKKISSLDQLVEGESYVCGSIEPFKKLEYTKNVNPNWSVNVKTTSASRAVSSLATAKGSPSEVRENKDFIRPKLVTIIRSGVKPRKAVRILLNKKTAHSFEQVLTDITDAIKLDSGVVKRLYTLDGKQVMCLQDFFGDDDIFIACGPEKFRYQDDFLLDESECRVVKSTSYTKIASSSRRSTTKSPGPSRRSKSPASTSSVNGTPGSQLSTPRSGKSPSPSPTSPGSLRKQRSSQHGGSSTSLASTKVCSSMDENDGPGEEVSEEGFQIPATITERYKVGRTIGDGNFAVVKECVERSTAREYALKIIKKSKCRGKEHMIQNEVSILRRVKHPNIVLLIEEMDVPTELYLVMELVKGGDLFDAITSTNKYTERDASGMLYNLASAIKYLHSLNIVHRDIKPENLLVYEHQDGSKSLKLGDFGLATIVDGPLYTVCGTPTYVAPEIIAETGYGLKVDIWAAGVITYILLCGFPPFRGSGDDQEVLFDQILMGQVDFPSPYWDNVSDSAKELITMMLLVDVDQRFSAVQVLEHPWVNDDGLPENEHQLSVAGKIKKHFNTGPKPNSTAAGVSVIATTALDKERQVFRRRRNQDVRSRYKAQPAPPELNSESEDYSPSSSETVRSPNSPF

The compound remaining of `CC(C)C[C@H](NC(=O)[C@H](Cc1ccccc1)NC(=O)[C@H](Cc1ccccc1)NC(=O)Cc1ccc(-c2ccccc2)cc1)C(=O)N[C@@H](CCCCN)C(=O)N[C@@H](CCCNC(=N)N)C(=O)N[C@H](C(=O)N[C@@H](Cc1c[nH]c2ccccc12)C(=O)N[C@@H](CCCCN)C(=O)N[C@@H](CCCNC(=N)N)C(=O)O)C(C)C` is reported as 29.8% (metabolic stability, mass spectrometry; mouse, liver microsomes; 15 min).
`C[C@]12CC[C@H]3[C@@H](CC=C4CC(O)CC[C@@]43CO)[C@@H]1CCC2O` (some centres unmarked) gave a Cmax of 6960 ng/mL (rat, plasma; intraperitoneal, 20 mg/kg).
For `COc1ccccc1N1CCN(Cc2c(NC(C)=O)sc(C)c2C)CC1`, the IC50 was 351 nM (Dihydroorotate dehydrogenase (quinone), mitochondrial (PFF0160c, Plasmodium falciparum, UniProt Q08210); enzyme activity, inhibitor, absorbance).
For `Nc1ncc(-c2nc(N3CCOCC3)nc(N3CCOCC3)n2)c(C(F)F)n1`, the remaining binding was 100% (Mitogen-activated protein kinase kinase kinase 13 (MAP3K13, Homo sapiens, UniProt O43283); binding, competition with immobilised ligand; 10 µM).
`CC[C@H](C)CCCCC(=O)N[C@@H](CCN)C(=O)N[C@H](C(=O)N[C@@H](CCN)C(=O)N[C@H]1CCNC(=O)[C@H]([C@@H](C)O)NC(=O)[C@H](CCN)NC(=O)[C@H](CCN)NC(=O)[C@H](CC(C)C)NC(=O)[C@@H](CC(C)C)NC(=O)[C@H](CCN)NC1=O)[C@@H](C)O` gave a bioavailability of 90% (male Sprague-Dawley rat, plasma; subcutaneous, 10 mg/kg).
`Cc1cc(Nc2ccc(C)c(Cl)c2)n2ncnc2n1` gave an IC50 of 3160 nM (Dihydroorotate dehydrogenase (quinone), mitochondrial (PFF0160c, Plasmodium falciparum, UniProt Q08210, E182D); enzyme activity, inhibitor, absorbance).
For `CCOC(=O)c1c(NC(=O)CNC(C)C)sc2c1CCCCC2`, the concentration was 3.32 ng/g (male mouse, brain; intraperitoneal, 100 mg/kg, 24 h).
The remaining binding of `[2H]c1c([2H])c([C@]2([2H])CCCN2C(=O)C(C)(C)Oc2ccc3cn[nH]c3c2)c([2H])c([2H])c1C([2H])([2H])[2H]` is reported as 64% (Cyclin-dependent kinase-like 2 (CDKL2, Homo sapiens, UniProt Q92772); binding, competition with immobilised ligand; 1 µM).
With `Nc1c2c(nc3c1C(c1ccc(Cl)c(Cl)c1)c1ccc(OCC(=O)c4ccc(Cl)cc4)cc1O3)CCCC2` (centres unmarked) the viability was 45.1% (SH-SY5Y; cell growth or viability, MTT; 100 µM).
The CC50 of `Cn1cc2c3c1C(=O)C(N)=CC3=[N+](C)CC2` is reported as 1000 nM (HEK293; cell growth or viability, MTT; 72 h).
`Cn1c(=O)ccc2ccc(F)c(CCNC[C@H]3CN(c4ncc5c(n4)NC(=O)CO5)C(=O)O3)c21` gave an IC50 of 214000 nM (Voltage-gated inwardly rectifying potassium channel KCNH2 (KCNH2, Homo sapiens, UniProt Q12809); ion current, inhibitor, patch clamp; 2 min, pH 7.4).
`Nc1c2c(nc3c1C(c1ccc(Cl)c(Cl)c1)c1ccc(OCC(=O)c4ccccc4)cc1O3)CCCC2` (centres unmarked) gave a viability of 58.5% (SH-SY5Y; cell growth or viability, MTT; 6.3 µM).
With `CC[C@H](C)[C@H](NC(=O)CN)C(=O)NCC(=O)N[C@@H](C)C(=O)N[C@H](C(=O)N[C@@H](CC(C)C)C(=O)N[C@@H](CCCCN)C(=O)N[C@H](C(=O)N[C@@H](CC(C)C)C(=O)N[C@H](C(=O)N[C@H](C(=O)NCC(=O)N[C@@H](CC(C)C)C(=O)N1CCC[C@H]1C(=O)N[C@@H](C)C(=O)N[C@@H](CC(C)C)C(=O)N[C@H](C(=O)N[C@@H](CO)C(=O)N[C@@H](Cc1c[nH]c2ccccc12)C(=O)N[C@H](C(=O)N[C@@H](CCCCN)C(=O)N[C@@H](CCCNC(=N)N)C(=O)N[C@@H](CCCCN)C(=O)N[C@@H](CCCNC(=N)N)C(=O)N[C@@H](CCC(N)=O)C(=O)N[C@@H](CCC(N)=O)C(N)=O)[C@@H](C)CC)[C@@H](C)CC)[C@@H](C)O)[C@@H](C)O)C(C)C)C(C)C` the compound remaining was roughly 52% (chemical stability, HPLC; human, serum; 300 µM, 8 h).
`Nc1c2c(nc3c1C(c1cccc([N+](=O)[O-])c1)c1ccc(OCC(=O)c4ccc(Cl)cc4)cc1O3)CCCC2` (centres unmarked) gave a viability of 89.5% (SH-SY5Y; cell growth or viability, MTT; 0.4 µM).
With `Cc1nn(C)cc1-c1nc2c(N3CCN(Cc4ccc(Cl)cc4)CC3)c(Cl)cnc2[nH]1` the remaining binding was 80% (Serine/threonine-protein kinase DCLK1 (DCLK1, Homo sapiens, UniProt O15075); binding, competition with immobilised ligand; 1 µM).
With `Cc1ccc(S(=O)(=O)Oc2ccc3c(c2)Oc2nc4c(c(N)c2C3c2ccc(Cl)c(Cl)c2)CCCC4)cc1` (centres unmarked) the viability was 89.5% (SH-SY5Y; cell growth or viability, MTT; 0.4 µM).
The tracer uptake of `[18FH]` is reported as 0.28 %ID/g (mouse, heart; intravenous, 1 h).

Some of these lines once more:
For `CCOC(=O)c1c(NC(=O)CNC(C)C)sc2c1CCCCC2`, the concentration was 3.32 ng/g (male mouse, brain; intraperitoneal, 100 mg/kg, 24 h).
The remaining binding of `[2H]c1c([2H])c([C@]2([2H])CCCN2C(=O)C(C)(C)Oc2ccc3cn[nH]c3c2)c([2H])c([2H])c1C([2H])([2H])[2H]` is reported as 64% (Cyclin-dependent kinase-like 2 (CDKL2, Homo sapiens, UniProt Q92772); binding, competition with immobilised ligand; 1 µM).
